Assay results from different studies.
Numbered parts are unrelated; each lists some results of a single study.

Set 1
Target: Sal-like protein 4, full length isoform A (SALL4, Homo sapiens, UniProt Q9UJQ4, residues 1-1053)
Sequence of UniProt Q9UJQ4 (whole entry, looked up): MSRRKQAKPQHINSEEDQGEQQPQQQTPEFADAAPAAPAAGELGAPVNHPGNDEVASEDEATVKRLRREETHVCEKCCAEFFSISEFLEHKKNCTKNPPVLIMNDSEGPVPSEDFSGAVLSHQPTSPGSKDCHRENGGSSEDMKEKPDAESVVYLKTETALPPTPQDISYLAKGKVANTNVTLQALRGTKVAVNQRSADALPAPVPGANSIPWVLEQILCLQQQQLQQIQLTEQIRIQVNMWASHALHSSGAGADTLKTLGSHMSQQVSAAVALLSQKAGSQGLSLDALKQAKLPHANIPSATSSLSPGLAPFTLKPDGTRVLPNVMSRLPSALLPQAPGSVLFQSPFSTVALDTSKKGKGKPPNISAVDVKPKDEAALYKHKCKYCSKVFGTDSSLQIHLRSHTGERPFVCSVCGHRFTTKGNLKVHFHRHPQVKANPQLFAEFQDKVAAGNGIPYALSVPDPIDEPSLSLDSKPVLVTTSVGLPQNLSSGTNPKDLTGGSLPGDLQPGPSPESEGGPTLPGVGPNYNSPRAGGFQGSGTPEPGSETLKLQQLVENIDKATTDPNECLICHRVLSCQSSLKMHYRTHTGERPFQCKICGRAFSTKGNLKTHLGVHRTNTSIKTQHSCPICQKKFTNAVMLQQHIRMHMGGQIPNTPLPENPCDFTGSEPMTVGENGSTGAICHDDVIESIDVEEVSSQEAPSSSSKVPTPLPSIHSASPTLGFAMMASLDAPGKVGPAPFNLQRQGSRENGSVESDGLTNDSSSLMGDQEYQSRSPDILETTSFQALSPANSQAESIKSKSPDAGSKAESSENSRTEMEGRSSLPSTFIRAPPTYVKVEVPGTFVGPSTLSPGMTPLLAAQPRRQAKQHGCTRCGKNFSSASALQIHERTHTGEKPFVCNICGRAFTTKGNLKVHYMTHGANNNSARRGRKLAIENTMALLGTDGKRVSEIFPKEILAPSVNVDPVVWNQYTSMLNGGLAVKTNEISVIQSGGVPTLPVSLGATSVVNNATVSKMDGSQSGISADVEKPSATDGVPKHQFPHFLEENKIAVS
Method: universal PBM
Molecule type: double-stranded DNA, one strand shown
Medium: in vitro
Concentration: 600 nM
Setting: 8-mer, flanks averaged, mean of replicates
Direction: higher = stronger binding
| Sequence | E-score |
| --- | --- |
| GCTCGGAC | -0.302 |
| AAGAACCT | 0.0345 |
| AGAAGCAG | -0.00219 |
| ACTCGTAG | 0.0197 |
| GGGGGAGA | -0.216 |
| GCTAAAGA | 0.0691 |

Set 2
Target: Interferon regulatory factor 5, full length, phosphomimetic (IRF5, Homo sapiens, UniProt Q13568-2, residues 1-514, S451D/S453D/S456D/S462D)
Method: protein-binding microarray
Molecule type: double-stranded DNA, one strand shown
Medium: in vitro
Concentration: 940 nM top
Setting: 60-bp whole probe
Together with: salmon DNA 0.4 mg/ml
Baseline: random background probes
Direction: higher = stronger binding
All sequences stand within: GCCTAGCAC … GTCTTGATTCGCTTGACGCTGCTG
| Sequence | fitted relative affinity |
| --- | --- |
| GACGAACTGAGTCTCGAGCCGTGCTAG | 0.298 z-score |
| TCAGAAATTCCTCTGAAACTGTGCTAG | -0.0171 z-score |
| GACGGTATCCTGCTGCTGACGTGCTAG | -0.0869 z-score |
| GAGGGTATCGACTATCGGGACGTGCTA | 2.88 z-score |
| GACGATCTCCTTTTCCTGACGTGCTAG | 0.864 z-score |
| GACGGTCTCCATTTCCTGACGTGCTAG | 0.53 z-score |

Set 3
Target: PABPC1L2, full length, GST fusion (mouse, UniProt A0ABA7IW68)
Method: RNAcompete
Molecule type: RNA
Medium: in vitro
Concentration: 20 nM
Setting: 7-mer, probes averaged, single round
Baseline: mean of 7-mers
Direction: higher = stronger binding
Construct (chain): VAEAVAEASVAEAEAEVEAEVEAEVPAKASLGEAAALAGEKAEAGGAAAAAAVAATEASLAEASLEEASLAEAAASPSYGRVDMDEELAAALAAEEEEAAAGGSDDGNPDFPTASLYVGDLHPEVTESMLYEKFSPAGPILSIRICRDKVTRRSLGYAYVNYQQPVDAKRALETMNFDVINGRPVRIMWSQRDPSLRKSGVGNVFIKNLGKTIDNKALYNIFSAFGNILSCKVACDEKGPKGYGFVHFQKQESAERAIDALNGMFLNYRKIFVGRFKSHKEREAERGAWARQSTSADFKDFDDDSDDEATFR
| Sequence | 7-mer Z-score |
| --- | --- |
| GCCCUCC | -0.364 |
| AUGACAU | -0.012 |
| AAACAAC | 3 |
| GGAGGCC | 0.095 |

Other studies, line by line
| Molecule | target | test | system | conditions | how to read | endpoint | result |
| --- | --- | --- | --- | --- | --- | --- | --- |
| PhoQ, residues 284 288 289 292 302 303 SCKMEA | PhoP, residues 12 14 15 18 19 GHCSL (Escherichia coli, UniProt P23836) | Sort-seq, item: YFP reporter | E. coli | PhoQ-PhoP variant library, together with: 10 µM Mg2+ | baseline: high Mg2+ state, higher = stronger signaling | fold induction | 2.3 |

A few entries again (set 2):
| Sequence | fitted relative affinity |
| --- | --- |
| GACGATCTCCTTTTCCTGACGTGCTAG | 0.864 z-score |
| GACGGTATCCTGCTGCTGACGTGCTAG | -0.0869 z-score |
